# Measurements gathered from unrelated publications.
# Lines come from different studies, so protocols differ. Values joined by “and” are separate records of one study, mostly repeats; a detail may differ. ± marks the error that the study gave.
# CXCR4: C-X-C chemokine receptor type 4 (CXCR4, Homo sapiens, UniProt P61073)
# UniProt P61073, sequence (whole entry, looked up): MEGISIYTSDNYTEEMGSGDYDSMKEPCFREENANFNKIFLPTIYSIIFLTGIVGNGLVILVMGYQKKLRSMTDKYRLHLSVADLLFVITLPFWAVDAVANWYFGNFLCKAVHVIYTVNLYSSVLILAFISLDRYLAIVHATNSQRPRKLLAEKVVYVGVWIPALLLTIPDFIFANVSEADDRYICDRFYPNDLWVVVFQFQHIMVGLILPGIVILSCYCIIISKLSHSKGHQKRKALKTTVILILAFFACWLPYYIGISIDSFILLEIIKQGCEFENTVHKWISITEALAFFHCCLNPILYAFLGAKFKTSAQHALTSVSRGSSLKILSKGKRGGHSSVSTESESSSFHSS
# PARP1: Poly [ADP-ribose] polymerase 1 (PARP1, Homo sapiens, UniProt P09874)
# UniProt P09874, sequence (whole entry, looked up): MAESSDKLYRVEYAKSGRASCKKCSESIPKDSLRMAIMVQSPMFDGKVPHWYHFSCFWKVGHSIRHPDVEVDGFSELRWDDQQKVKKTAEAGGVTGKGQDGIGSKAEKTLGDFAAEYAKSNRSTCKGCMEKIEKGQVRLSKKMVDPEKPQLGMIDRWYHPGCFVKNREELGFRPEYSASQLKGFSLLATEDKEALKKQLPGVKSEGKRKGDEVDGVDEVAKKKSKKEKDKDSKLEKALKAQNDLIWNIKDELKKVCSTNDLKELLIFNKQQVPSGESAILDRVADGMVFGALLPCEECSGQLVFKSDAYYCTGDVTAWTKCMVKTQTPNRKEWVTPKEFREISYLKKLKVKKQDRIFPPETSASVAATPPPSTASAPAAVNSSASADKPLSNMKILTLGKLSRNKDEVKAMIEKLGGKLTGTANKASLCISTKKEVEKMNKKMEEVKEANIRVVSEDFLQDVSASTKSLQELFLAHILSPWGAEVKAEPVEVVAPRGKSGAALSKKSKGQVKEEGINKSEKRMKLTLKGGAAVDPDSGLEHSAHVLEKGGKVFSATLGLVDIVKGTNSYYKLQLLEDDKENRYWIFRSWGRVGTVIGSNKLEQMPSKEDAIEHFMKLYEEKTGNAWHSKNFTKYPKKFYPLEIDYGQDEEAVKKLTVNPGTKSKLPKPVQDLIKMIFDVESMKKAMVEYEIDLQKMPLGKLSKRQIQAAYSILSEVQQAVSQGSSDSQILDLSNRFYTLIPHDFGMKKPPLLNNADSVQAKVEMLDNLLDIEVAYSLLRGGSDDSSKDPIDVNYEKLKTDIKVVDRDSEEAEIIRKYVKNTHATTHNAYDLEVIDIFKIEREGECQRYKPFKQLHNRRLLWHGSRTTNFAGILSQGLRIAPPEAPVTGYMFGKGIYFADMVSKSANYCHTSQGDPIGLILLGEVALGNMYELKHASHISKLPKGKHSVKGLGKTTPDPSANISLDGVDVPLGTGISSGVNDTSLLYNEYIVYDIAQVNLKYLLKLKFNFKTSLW
# CYP1A2: Cytochrome P450 1A2 (CYP1A2, Homo sapiens, UniProt P05177)
# Grin1/Grin2a: Glutamate NMDA receptor; Grin1/Grin2a (Grin1/Grin2a, Rattus norvegicus, UniProt P35439+Q00959)
# FAAH: Fatty-acid amide hydrolase 1 (FAAH, Homo sapiens, UniProt O00519)
# UniProt P08183, sequence (whole entry, looked up): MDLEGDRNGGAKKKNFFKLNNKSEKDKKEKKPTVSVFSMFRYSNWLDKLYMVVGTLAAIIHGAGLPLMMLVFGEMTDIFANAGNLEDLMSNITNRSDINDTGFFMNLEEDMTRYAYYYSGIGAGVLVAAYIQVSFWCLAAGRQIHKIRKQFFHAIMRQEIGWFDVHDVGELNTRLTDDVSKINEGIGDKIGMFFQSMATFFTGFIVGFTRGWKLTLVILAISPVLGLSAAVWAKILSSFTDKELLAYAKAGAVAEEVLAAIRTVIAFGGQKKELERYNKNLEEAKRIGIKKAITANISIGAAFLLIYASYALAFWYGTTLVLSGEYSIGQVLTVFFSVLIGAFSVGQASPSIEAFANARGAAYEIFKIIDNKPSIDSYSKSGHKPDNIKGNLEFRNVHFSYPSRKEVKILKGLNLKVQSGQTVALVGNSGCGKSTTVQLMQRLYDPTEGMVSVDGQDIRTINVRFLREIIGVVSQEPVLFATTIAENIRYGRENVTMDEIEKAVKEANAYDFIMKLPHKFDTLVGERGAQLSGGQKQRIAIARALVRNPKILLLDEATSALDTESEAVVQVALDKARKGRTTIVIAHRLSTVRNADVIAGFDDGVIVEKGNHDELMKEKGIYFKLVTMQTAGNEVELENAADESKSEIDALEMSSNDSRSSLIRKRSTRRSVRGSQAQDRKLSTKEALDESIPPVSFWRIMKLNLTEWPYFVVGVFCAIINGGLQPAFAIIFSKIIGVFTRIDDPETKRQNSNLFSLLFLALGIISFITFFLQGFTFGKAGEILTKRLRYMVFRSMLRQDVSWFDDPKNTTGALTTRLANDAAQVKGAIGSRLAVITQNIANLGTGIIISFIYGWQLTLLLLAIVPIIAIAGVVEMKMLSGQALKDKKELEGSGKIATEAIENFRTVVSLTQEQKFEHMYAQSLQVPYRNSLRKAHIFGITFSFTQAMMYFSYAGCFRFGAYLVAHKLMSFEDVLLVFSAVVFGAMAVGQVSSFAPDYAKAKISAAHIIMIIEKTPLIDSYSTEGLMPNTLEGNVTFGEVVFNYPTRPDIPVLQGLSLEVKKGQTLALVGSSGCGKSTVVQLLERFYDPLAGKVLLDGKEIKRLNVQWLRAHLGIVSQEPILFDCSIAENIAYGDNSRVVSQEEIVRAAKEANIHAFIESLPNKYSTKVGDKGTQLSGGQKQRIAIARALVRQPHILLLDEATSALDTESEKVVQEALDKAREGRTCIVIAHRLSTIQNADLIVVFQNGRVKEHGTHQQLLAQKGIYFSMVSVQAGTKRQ
# UniProt O00519, sequence (whole entry, looked up): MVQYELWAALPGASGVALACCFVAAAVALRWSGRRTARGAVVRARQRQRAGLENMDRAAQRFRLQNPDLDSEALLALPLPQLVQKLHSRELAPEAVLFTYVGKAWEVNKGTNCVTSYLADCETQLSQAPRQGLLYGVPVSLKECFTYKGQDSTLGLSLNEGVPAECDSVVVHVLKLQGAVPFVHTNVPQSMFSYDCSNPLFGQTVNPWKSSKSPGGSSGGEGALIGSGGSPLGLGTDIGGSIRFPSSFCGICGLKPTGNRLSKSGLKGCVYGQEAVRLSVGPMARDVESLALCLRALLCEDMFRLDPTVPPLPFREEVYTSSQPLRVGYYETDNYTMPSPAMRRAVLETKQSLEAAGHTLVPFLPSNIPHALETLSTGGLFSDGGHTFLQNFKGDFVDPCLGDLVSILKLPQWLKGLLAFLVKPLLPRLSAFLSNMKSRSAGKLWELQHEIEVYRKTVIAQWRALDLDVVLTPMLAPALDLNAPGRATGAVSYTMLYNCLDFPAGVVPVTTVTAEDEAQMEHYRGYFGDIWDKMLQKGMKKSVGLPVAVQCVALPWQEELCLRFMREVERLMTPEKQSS
# UniProt Q86U42, sequence (whole entry, looked up): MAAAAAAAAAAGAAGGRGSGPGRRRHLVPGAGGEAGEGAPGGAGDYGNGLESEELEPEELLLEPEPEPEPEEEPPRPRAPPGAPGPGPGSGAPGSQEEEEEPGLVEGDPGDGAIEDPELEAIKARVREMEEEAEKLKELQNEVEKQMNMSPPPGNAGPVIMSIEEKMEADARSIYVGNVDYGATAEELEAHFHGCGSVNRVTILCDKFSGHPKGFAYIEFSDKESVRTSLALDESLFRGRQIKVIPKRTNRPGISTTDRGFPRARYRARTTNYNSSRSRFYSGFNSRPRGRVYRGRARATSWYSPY
# UniProt P00383, sequence (whole entry, looked up): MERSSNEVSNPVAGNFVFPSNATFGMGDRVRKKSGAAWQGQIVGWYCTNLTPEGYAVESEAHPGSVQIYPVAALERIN
SMILES,target,test,system,setting,IC50
O=C(O)c1ccc2[nH]c(-c3ccc(OCc4ccc(COc5ccc(-c6nc7cc(C(=O)O)ccc7[nH]6)cc5)cc4)cc3)nc2c1,"Dihydrofolate reductase type 2 (Escherichia coli, UniProt P00383)","inhibitor, spectrophotometric kinetic",,"extrapolated, insoluble above 100 µM",200 µM
COc1cc2nc(NCc3ccc(CNCCCNC4CCCCC4)cc3)nc(NC3CCNCC3)c2cc1OC,CXCR4,"ligand displacement, radioligand",,cell membranes,0.0315 µM
COC(=O)c1cc2c(C(F)(F)F)cc(-c3ccccc3)cc2n1O,"LDHB (Homo sapiens, UniProt P07195)","inhibitor, NADH fluorescence",,"NADH competition, added: 1440 µM pyruvate, 40 µM NADH",55.8 ± 7.1 µM
CC(=O)n1c(=S)[nH]c2ccccc21,"mbtI (Mycobacterium tuberculosis, UniProt P9WFX1)","enzyme activity, inhibitor, fluorescence",,pH 8,5.89 µM and 5.9 µM
Cc1ccccc1C(C(=O)NC1CCCCC1)N(C(=O)Cn1ccnc1C)c1cccc(F)c1 (centres unmarked),"IDH1 (Homo sapiens, UniProt O75874, R132H)","enzyme activity, inhibitor",,"racemic compound, added: α-ketoglutarate",< 0.05 µM
CC(C)NCc1ccc(C[C@@H]2NC(=O)[C@H](N(C)C(=O)c3ccc4ccccc4c3)NC(=O)[C@H](Cc3ccccc3)NC(=O)[C@@H](N)CSSC[C@@H](C(=O)N[C@H](C(N)=O)[C@@H](C)O)NC(=O)[C@H](Cc3ccccc3)NC2=O)cc1,"SSTR3 (Homo sapiens, UniProt P32745)","ligand displacement, radioligand",,cell membranes,0.848 µM
NC(=O)c1cc(N)cc2c1OCCO2,PARP1,,,,> 5 µM
CCOc1ccc2cc(C3CC(c4ccc(Br)cc4)=NN3C(=O)CCC(=O)O)c(Cl)nc2c1 (centres unmarked),"RPA1 (Homo sapiens, UniProt P27694)","protein-nucleic acid interaction, inhibitor, mobility shift",,,12.9 µM
Nc1ncnc2c1ncn2[C@@H]1O[C@H](COP(=O)(O)OP(=O)(O)OP(=O)(O)O)[C@@H](O)[C@H]1O,"5'-AMP-activated protein kinase subunit gamma-1, with alpha1 beta2 (PRKAG1, Homo sapiens, UniProt P54619)","conformational change, AlphaScreen",,α1β2γ1 AMPK,850 µM
O=C(NNC(=O)c1ccc(CNS(=O)(=O)c2ccc(F)c(Cl)c2)cc1)c1ccccc1,"Glutamate NMDA receptor; Grin1/Grin2a (Grin1/Grin2a, Rattus norvegicus, UniProt P35439+Q00959, V783W)","ion current, two-electrode voltage clamp",,oocytes,0.036 µM
O=c1[nH]c2ccccc2n1C1CCN(CCCC(c2ccc(F)cc2)c2ccc(F)cc2)CC1,"ABCC1 (Homo sapiens, UniProt P33527)","substrate efflux, inhibitor, flow cytometry",ABCC1-overexpressing SupT1-Vin cells,added: BODIPY-FL-histamine 500 nM,11.1 ± 6.4 µM
Cc1ncc([N+](=O)[O-])n1CC(C)O (centres unmarked),CYP1A2,"enzyme activity, inhibitor",human liver microsomes,"30 min, added: phenacetin",> 500 µM
COc1ccc2nc(/C=C/c3cccc([N+](=O)[O-])c3)n(-c3ccc(C(=O)O)cc3)c(=O)c2c1,Grin1/Grin2a,"ion current, two-electrode voltage clamp",,oocytes,182 µM
C#Cc1ccc2c(C)c(-c3ccccc3)c(=O)oc2c1,CYP1A2,"enzyme activity, inhibitor",,"6 min, pH 7.6",5.8 µM
CCCCC(C(=O)COc1c(F)c(F)cc(F)c1F)n1cc(C2(N)CCNCC2)nn1 (centres unmarked),"DPAP1 (Plasmodium falciparum, UniProt Q8IIJ9)","inhibitor, fluorogenic substrate",Plasmodium falciparum lysate,30 min,> 20 µM
NC(=O)N1c2ccccc2C=Cc2ccccc21,"SCN8A (Homo sapiens, UniProt Q9UQD0)","ion current, inhibitor, automated patch clamp",,held at V0.5 inactivation for 10 s,25.6 µM
C1=C/COCc2cc(ccc2OCCN2CCCC2)Nc2nccc(n2)-c2cccc(c2)COC/1,"SLC29A1 (Homo sapiens, UniProt Q99808)","transporter uptake, inhibitor, radiometric",,,3.7 µM
O=P(O)(OC[C@H]1OC(O)[C@H](O)[C@@H]1O)OP(=O)(O)OC[C@H]1O[C@@H](n2cnc3c2ncn2ccnc32)[C@H](O)[C@@H]1O (some centres unmarked),"TRPM2 (Nematostella vectensis, UniProt A7T1N0)","ion current, inhibitor, patch clamp",,,269 µM and ~270 µM
CCC(C)Oc1nc(N)nc(N)c1C#N (centres unmarked),"PIK3CB (Homo sapiens, UniProt P42338)","enzyme activity, inhibitor",,,> 20 µM
CN(CCCNC(=O)c1cccc(Br)c1)C(C)(C)C,"Lethal(3)malignant brain tumor-like protein 3 (Homo sapiens, UniProt Q96JM7)","methyl-lysine reader binding, inhibitor, AlphaScreen",,,> 500 µM
Cc1ccc(C(=O)Nc2ccc(S(=O)(=O)O)c3cc(S(=O)(=O)O)cc(S(=O)(=O)O)c23)cc1NC(=O)c1cccc(NC(=O)Nc2cccc(C(=O)Nc3cc(C(=O)Nc4ccc(S(=O)(=O)O)c5cc(S(=O)(=O)O)cc(S(=O)(=O)O)c45)ccc3C)c2)c1,"SIRT3 (Homo sapiens, UniProt Q9NTG7)","enzyme activity, inhibitor, HPLC",,,5 to 75 µM
CC[C@H](C(=O)O)[C@H]1CCN[C@@H]1C(=O)O,"AMPA receptor, rat",binding,cortical synaptosomes,added: [3H]-AMPA,> 100 µM
[Zn+2],Grin1/Grin2a,,,pH 7.3,0.05 µM
COC(=O)/C=C/c1cc(O)ccc1O,"FLT1 (Homo sapiens, UniProt P17948)",,,,> 10 µM
O=C(Nc1cc(F)c(F)c(F)c1)c1cc(S(=O)(=O)N2CCOCC2)c(Cl)cc1Cl,"LPAR3 (Homo sapiens, UniProt Q9UBY5)","Ca2+ mobilization, antagonist",RH7777,added: LPA at EC50,> 100 µM
O=C1C(Cl)=C(Cl)C(=O)c2c(O)ccc(O)c21,"PABPN1 (Homo sapiens, UniProt Q86U42)","inhibitor, AlphaScreen counterscreen",,,3.68 µM
O=C(O)/C=C/c1ccc(O)c(O)c1,"Cell division cycle 7-related protein kinase, with DBF4 (CDC7, Homo sapiens, UniProt O00311)","enzyme activity, inhibitor, ADP-Glo luminescence",,added: ATP 12.5 µM,6.19 ± 0.42 µM
Cn1c(=O)c(=O)n(C)c2cc(S(=O)(=O)Nc3ccccc3S)ccc21,"DPP4 (Homo sapiens, UniProt P27487)","enzyme activity, inhibitor, fluorescence",,,0.00067 µM
O=c1c2ccccc2nc(NN=Cc2ccccc2O)n1-c1ccccc1,PARP1,"enzyme activity, inhibitor, absorbance",,,0.104 µM
NC(=O)c1cccc2c1O[C@H](CO)CO2,PARP1,,,,> 5 µM
COc1ccc(Cn2cc(CNC(=O)OCc3cn(Cc4ccccc4OC)nn3)nn2)cc1,FAAH,"enzyme activity, inhibitor, fluorescence",,cell membranes,0.0307 µM
COc1ccc(-c2cc(=O)c3c(OC)c([C@@H]4O[C@H](C(=O)Nc5ccc(F)cc5)[C@@H](O)[C@H](O)[C@H]4O)c(OC)cc3o2)cc1OC,"GSK3B (Homo sapiens, UniProt P49841)","enzyme activity, inhibitor, ADP detection",,,56.2 µM
O=C1Nc2ccc(Cl)cc2[C@@](C#CC2CC2)(C(F)(F)F)O1,"ABCB1 (Homo sapiens, UniProt P08183)","transporter efflux, inhibitor, fluorescence",MDCK-II,,123 µM and ~123 µM
O=c1c2ccccc2nc(NN=Cc2ccc(O)cc2)n1-c1ccccc1,PARP1,enzyme activity,,,0.0449 µM
CCN(CC)Cc1ccc(S(=O)(=O)N(C)Cc2ccc(F)cc2)cc1,CXCR4,"binding, inhibitor, competition binding",MDA-MB-231,,11.8 µM
O=C(O)c1ccc(S(=O)(=O)N(Cc2ccc(OC(F)(F)F)cc2)c2ncc(C(F)(F)F)cc2Cl)cc1,"TRPM8 (Homo sapiens, UniProt Q7Z2W7)","calcium signal, antagonist, fluorescence",,,0.00296 µM and 0.003 µM
O=C(OCc1ccccc1)c1ccc([N+](=O)[O-])cc1,FAAH,"enzyme activity, inhibitor, fluorescence",,with preincubation,> 100 µM
c1nc2c(NCC3CCC(CNCCCNC4CCCCC4)CC3)nc(N3CCNCC3)nc2[nH]1 (centres unmarked),CXCR4,"β-arrestin-2 recruitment, antagonist, luciferase complementation",MDA-MB-231,"20 min, added: 200 ng/mL CXCL12-α",0.09 µM

# A few entries again:
SMILES,target,test,system,setting,IC50
NC(=O)N1c2ccccc2C=Cc2ccccc21,"SCN8A (Homo sapiens, UniProt Q9UQD0)","ion current, inhibitor, automated patch clamp",,held at V0.5 inactivation for 10 s,25.6 µM
C1=C/COCc2cc(ccc2OCCN2CCCC2)Nc2nccc(n2)-c2cccc(c2)COC/1,"SLC29A1 (Homo sapiens, UniProt Q99808)","transporter uptake, inhibitor, radiometric",,,3.7 µM
O=P(O)(OC[C@H]1OC(O)[C@H](O)[C@@H]1O)OP(=O)(O)OC[C@H]1O[C@@H](n2cnc3c2ncn2ccnc32)[C@H](O)[C@@H]1O (some centres unmarked),"TRPM2 (Nematostella vectensis, UniProt A7T1N0)","ion current, inhibitor, patch clamp",,,269 µM and ~270 µM
CCC(C)Oc1nc(N)nc(N)c1C#N (centres unmarked),"PIK3CB (Homo sapiens, UniProt P42338)","enzyme activity, inhibitor",,,> 20 µM
CN(CCCNC(=O)c1cccc(Br)c1)C(C)(C)C,"Lethal(3)malignant brain tumor-like protein 3 (Homo sapiens, UniProt Q96JM7)","methyl-lysine reader binding, inhibitor, AlphaScreen",,,> 500 µM
Cc1ccc(C(=O)Nc2ccc(S(=O)(=O)O)c3cc(S(=O)(=O)O)cc(S(=O)(=O)O)c23)cc1NC(=O)c1cccc(NC(=O)Nc2cccc(C(=O)Nc3cc(C(=O)Nc4ccc(S(=O)(=O)O)c5cc(S(=O)(=O)O)cc(S(=O)(=O)O)c45)ccc3C)c2)c1,"SIRT3 (Homo sapiens, UniProt Q9NTG7)","enzyme activity, inhibitor, HPLC",,,5 to 75 µM
